Published values of several laboratories.
Values after ≈ are worked out from the molar mass of the structure shown.
UniProt P78356, sequence (whole entry, looked up): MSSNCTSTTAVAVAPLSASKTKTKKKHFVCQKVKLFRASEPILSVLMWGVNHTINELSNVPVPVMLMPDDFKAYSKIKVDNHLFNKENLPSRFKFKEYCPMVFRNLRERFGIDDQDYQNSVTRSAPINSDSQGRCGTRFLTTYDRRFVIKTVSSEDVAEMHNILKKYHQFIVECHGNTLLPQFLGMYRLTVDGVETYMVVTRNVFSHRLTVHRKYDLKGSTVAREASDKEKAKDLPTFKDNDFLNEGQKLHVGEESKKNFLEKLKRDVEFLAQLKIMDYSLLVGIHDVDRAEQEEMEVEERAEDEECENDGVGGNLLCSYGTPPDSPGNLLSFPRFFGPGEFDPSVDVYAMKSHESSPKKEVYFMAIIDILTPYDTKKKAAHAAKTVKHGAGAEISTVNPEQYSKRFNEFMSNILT

The kinetic solubility of `C#Cc1ccc2c(c1)C(c1ccccn1)=NCc1c(-c3cnco3)ncn1-2` is reported as 240 µg/mL (water; 20 min, 37 °C).
`COc1ccc([C@@]23Oc4cc(OC)cc(OC)c4[C@@]24N=C(C2CC2)N[C@@]4(O)[C@H](C(=O)N(C)OC)[C@H]3c2ccccc2)cc1` gave a kinetic solubility of 45 µg/mL (aqueous buffer; 6 h, pH 7.4).
`[2H]c1c([2H])c([C@]2([2H])CCCN2C(=O)C(C)(C)Oc2ccc3cn[nH]c3c2)c([2H])c([2H])c1C([2H])([2H])[2H]` gave a remaining binding of 100% (PIP4K2B (Homo sapiens, UniProt P78356); binding, competition with immobilised ligand; 1 µM).
For `CC1(C)NC(=O)N(c2cc(Cl)c(F)c(C(F)(F)F)c2)C1=O`, the kinetic solubility was at most 50 µg/mL (nephelometry; aqueous buffer).
`COc1ccc([C@@]23Oc4cc(OC)cc(OC)c4[C@@]24NC(C)=N[C@@]4(O)[C@H](C(=O)N(C)OC)[C@H]3c2ccccc2)cc1` has a kinetic solubility of over 83 µg/mL (aqueous buffer; pH 7.4).
For `CC(C)C[C@@H]1C(=O)N[C@@H](Cc2ccccc2)C(=O)N2CCC[C@H]2C(=O)N[C@@H]([C@@H](C)O)C(=O)N[C@@H](C(C)C)C(=O)N[C@H]([C@H](C)O)C(=O)N[C@@H](Cc2ccccc2)C(=O)N[C@@H](CCC(N)=O)C(=O)N[C@H](C(=O)O)CSSC[C@H](N)C(=O)N1C`, the solubility was 457 µM (aqueous buffer; 18 h, pH 7.4).
The kinetic solubility of `COc1cc(C(=O)c2nc(-c3cccc4[nH]ccc34)c[nH]2)cc(OC)c1OC` is reported as 4.61 µM (PBS; pH 7.4).
For `CC(C)C[C@H]1C(=O)N[C@@H](C(C)C)C(=O)N[C@@H](Cc2ccccc2)C(=O)N[C@H](CC(=O)O)C(=O)N2CCC[C@@H]2C(=O)N[C@H](CCC(=O)O)C(=O)N[C@H](C(=O)O)CSSC[C@@H](N)C(=O)N[C@@H](CCC(=O)O)C(=O)N2CCC[C@H]2C(=O)N1C`, the thermodynamic solubility was 613 µM (≈ 713 µg/mL) (aqueous buffer; 18 h, pH 7.4).
For `Nc1nc(N)c(OCCCOc2ccccc2CCC(=O)O)c(-c2ccccc2)n1`, the solubility was 51 µM (PBS; 24 h, pH 7.4).
With `CC(C)C[C@@H]1NC(=O)[C@H](CCCNC(=N)N)NC(=O)[C@H]2CCCN2C(=O)[C@@H](N)CSSC[C@@H](C(=O)O)NC(=O)[C@@H]2CCCN2C(=O)[C@H](Cc2ccccc2)NC(=O)[C@H](CC(C)C)NC(=O)[C@H]([C@@H](C)O)NC(=O)[C@H](C(C)C)NC1=O` the solubility was 871 µM (aqueous buffer; 18 h, pH 7.4).
With `C[C@]12CC[C@H]3[C@@H](CC=C4CC(O)CC[C@@]43CO)[C@@H]1CCC2O` (stereo partly shown) the solubility was 301 µM (water).
`CC[C@H](C)[C@H]1C(=O)N[C@@H](CO)C(=O)N[C@@H](CC(C)C)C(=O)NCC(=O)N2CCC[C@H]2C(=O)N[C@@H](CC(C)C)C(=O)N[C@@H]([C@@H](C)O)C(=O)N[C@@H](CC(C)C)C(=O)N[C@@H](CC(=O)O)C(=O)N[C@H](Cc2ccc(O)cc2)C(=O)N2CCC[C@@H]2C(=O)N[C@H](Cc2ccc(O)cc2)C(=O)N1C` has a thermodynamic solubility of 412 µM (≈ 555 µg/mL) (aqueous buffer; 18 h, pH 7.4).
The solubility of `CC(C)N(CCc1c[nH]c2cccc(O)c12)C(C)C` is reported as 1000 to 2000 µg/mL (aqueous buffer; pH 5).

Repeated from above:
The solubility of `CC(C)N(CCc1c[nH]c2cccc(O)c12)C(C)C` is reported as 1000 to 2000 µg/mL (aqueous buffer; pH 5).
